Published values gathered from unrelated publications.
Lines come from different studies, so protocols differ. ± marks the error that the study gave.

`CCN(C(=O)c1cc(F)ccc1Oc1nncnc1N1CCC2(C1)CN([C@H](CCCN(C)CCOC)C(C)C)C2)C(C)C`: “increase in lifespan” greater than 89% (mouse, KMT2A-AF6 AML PDX; all dose levels; reference: vehicle).
With `CC(=O)[O-].Nc1ccc(C([O-])=NN=Cc2ccc(OCC(=O)Nc3ccc(Cl)cc3)cc2)cc1.O.O.O.[Ni+2]` the inhibition was 69.5% (ABTS radical scavenging, ABTS; concentration not given, 6 min).
`N[C@@H](Cc1c[nH]cn1)C(=O)N1CCC[C@H]1C(=O)NCC(=O)NCC(=O)O`: “ΔG‡ at 298.15 K” 22.7 ± 0.717 kcal/mol (diketopiperazine formation, Arrhenius plot, ESI-MS; 1-propanol; 70, 80, 90 °C, 0.5% acetic acid).
`COc1ccc(C2CC(c3ccc(C)cc3)=Nc3ccccc3S2)cc1` (stereo not drawn) has an ALT (SGPT) of 21.1 ± 2.71 IU/L (Wistar rat, STZ-induced diabetes, serum; 20 mg/kg, 28 days).
Under firing rate, `COc1cc2c(cc1OC)CC(=O)N(C[C@H]1CCCN(CCOc3ccc(F)cc3)C1)CC2` is recorded as “decreased” (VTA dopamine neurons; CSDS-susceptible male mice; intraperitoneal, 10 mg/kg; reference: baseline).
Under “SPR response increase”, `CC(=O)N[C@@H](CC1CCCCC1)C(=O)N[C@H]1CSSC[C@@H](C(=O)N[C@@H](CCCNC(=N)N)C(N)=O)NC(=O)[C@H](CC2CCCCC2)NC(=O)[C@H](CCCNC(=N)N)NC(=O)[C@H](CCCNC(=N)N)NC(=O)[C@H](CC2CCCCC2)NC(=O)[C@H](CC(C)C)NC(=O)[C@H](CCCNC(=N)N)NC(=O)[C@@H](NC(=O)[C@H](CC2CCCCC2)NC(C)=O)CSSC[C@@H](C(=O)N[C@@H](CCCNC(=N)N)C(N)=O)NC(=O)[C@H](CC2CCCCC2)NC(=O)[C@H](CCCNC(=N)N)NC(=O)[C@H](CCCNC(=N)N)NC(=O)[C@H](CC2CCCCC2)NC(=O)[C@H](CC(C)C)NC(=O)[C@H](CCCNC(=N)N)NC1=O` is recorded as 50% (surface plasmon resonance; POPC/POPE membrane; concentration not given; reference: cardiolipin-rich 10% over POPC/POPE only).
`Brc1ccc(Nc2nc(NN=Cc3c[nH]c4ccccc34)nc(N3CCOCC3)n2)cc1`: protein level “inhibited” (Western blot, measured: EGFR and AKT; mouse A549 xenograft, tumour; ip, 70 mg/kg single).
`CC[C@@H](C)[C@H]1NC(=O)[C@@H]([C@H](C)O)NC(=O)[C@@H](Cc2c[nH]cn2)NC(=O)CNC(=O)[C@@H](CCCNC(=N)N)NC(=O)CNC(=O)[C@@H](Cc2ccccc2)NC1=O`: “retinal vascular permeability” “decreased” (Evans blue; mouse, STZ diabetic for 6 weeks; eye drop, 0.5% once daily, 5 days).
`Cc1[nH]nc2c1N=C(c1ccccc1Cl)c1cnc(N3CCOCC3)cc1N2` — result for “phospho-histone H3 level”: “decreased” (immunohistochemistry; HCC1806 xenograft, nude mice, tumour; dose not given).
For `CC(CCC(=O)NCc1ccc(C(=O)NO)cc1)C1CCC2C3C(O)CC4CC(O)CCC4(C)C3CCC12C` (stereo not drawn), “increase in primary cilium length” read 64% (PCK rats, liver cystic cholangiocytes; dose not given; reference: untreated).
`CC[C@H](C)[C@H](NC(=O)[C@H](CCCCN)NC(=O)[C@H](CC(N)=O)NC(=O)CNC(=O)[C@@H](NC(=O)[C@H](C)NC(=O)[C@H](CCCNC(=N)N)NC(=O)[C@H](CC(C)C)NC(=O)[C@H](CCCCN)NC(=O)[C@H](CCCCN)NC(=O)[C@H](CCCCN)NC(=O)[C@H](C)NC(=O)[C@H](CCCCN)NC(=O)[C@@H]1CSSC[C@H](NC(=O)[C@H](CCCNC(=N)N)NC(=O)CN)C(=O)N[C@@H](CC(N)=O)C(=O)N[C@@H](CC(C)C)C(=O)N[C@@H](CC(C)C)C(=O)N1)C(C)C)C(=O)N[C@@H](CCCCN)C(=O)N[C@@H](CCC(=O)O)C(=O)N[C@H](C(=O)N[C@@H](CCCCN)C(=O)N[C@@H](CC(N)=O)C(=O)N[C@H](C(=O)N[C@H](C(=O)N[C@@H](Cc1ccccc1)C(=O)N[C@@H](CC(N)=O)C(=O)N[C@@H](CCCNC(=N)N)C(=O)O)C(C)C)C(C)C)[C@@H](C)CC` — result for cytokine level: “decreased” (measured: IL-6; BALB/c mice, CLP-induced sepsis, serum and lung; intraperitoneal, 5 mg/kg, 12 h post-surgery; reference: vehicle).
`COc1c2c(cc3oc(CO)cc(=O)c13)O[C@H](C(C)(C)O)C2` — result for “hot plate latency”: 13.2 ± 3.28 s (analgesia; mouse; oral, 4 mg/kg, 1 h).
`CCc1nnc(NS(=O)(=O)c2ccc(NC(=S)NC(=O)/C=C/c3ccc(F)cc3)cc2)s1`: “cleaved PARP level” “increased” (NXS2 allograft, A/J mice, tumour; intraperitoneal, 20 mg/kg daily, 3 weeks; reference: vehicle).
The inhibition of `CC(C)(O)c1ncc([S@](N)(=O)=NC(=O)Nc2c3c(cc4c2CCC4)CCC3)s1` is reported as roughly 90% (IL-1β release; healthy humans, whole blood ex vivo; oral, 100 mg once daily, 24 h, steady state, maintained, crystalline tablets).
`COc1ccc2nc(C)ccc2c1Nc1sn(C)c(=O)c1C#N`: “protection of SNAP amplitude” 44.7 ± 12.9% (tail sensory nerve conduction; mouse, paclitaxel neuropathy model; oral, 300 mg/kg daily, 9 days post-paclitaxel, with: paclitaxel; reference: vehicle).
Under “log2 fold change”, `Cc1cc2c(cc1C1(c3ncc(C(=O)O)cn3)CC1)C(C)(C)CCC2(C)C` is recorded as -1.2 (RNA sequencing, measured: Scd1; rat, brain; dose not given, 24 h; reference: vehicle).
For `COc1ccc2c(c1)c(CC(=O)OCC(=O)OC(C)(C)C)c(C)n2C(=O)c1ccc(Cl)cc1`, “latency of nociceptive response” read 18.1 ± 1.02 s (hot plate test; BALB/c mice; 100 mg/kg, 60 min).
`C[C@@H](O)[C@H](N)C(=O)N1CCC[C@H]1C(=O)NCC(=O)NCC(=O)O`: “ΔG‡ at 298.15 K” 22.2 ± 1.91 kcal/mol (diketopiperazine formation, Arrhenius plot, ESI-MS; 1-propanol; 70, 80, 90 °C, 0.5% acetic acid).
Under “patients with high reactivity”, `CSCCNc1nc(SCCC(F)(F)F)nc2c1ncn2[C@@H]1O[C@H](COP(=O)(O)OP(=O)(O)C(Cl)(Cl)P(=O)(O)O)[C@@H](O)[C@H]1O` is recorded as 50% (ADP-induced platelet aggregation, LTA, >59% aggregation; human patients, platelet-rich plasma; dose not given, 2 h, with: ADP 20 µM).
For `O=C(Nc1ccc(C(F)(F)F)cc1Cl)c1cc(Cl)ccc1O`, tumour growth read “decreased” (mice relapsed VCaP xenograft; oral, 75 mg/kg).
The inhibition of `CC(C)c1cnc(-c2cc(Cl)ccc2F)cc1Nc1ccncc1C(=O)NC(CO)CO` is reported as greater than 60% (SMAD2/3 phosphorylation, flow cytometry; human patients, peripheral monocytes; at least 250 mg).
Under “ΔG‡ at 298.15 K”, `CC[C@H](C)[C@H](N)C(=O)N1CCC[C@H]1C(=O)NCC(=O)NCC(=O)O` is recorded as 22.7 ± 1.43 kcal/mol (diketopiperazine formation, Arrhenius plot, ESI-MS; 1-propanol; 70, 80, 90 °C, 0.5% acetic acid).
For `CC[C@H](C)[C@@H]1NC(=O)[C@H](Cc2ccc(O)cc2)NC(=O)[C@@H](N)CSSC[C@@H](C(=O)NCC(=O)N[C@@H](CCCCNC(=O)COCCOCCNC(=O)COCCOCCNC(=O)CC[C@H](NC(=O)CC[C@H](NC(=O)CCCCCCCCCCCCCCCCC(=O)O)C(=O)O)C(=O)O)C(=O)NCC(N)=O)NC(=O)[C@H](CC(N)=O)NC(=O)[C@H](CCC(N)=O)NC1=O`, “onset of significant weight loss” read 9 days (C57BL/6 mice, diet-induced obese; subcutaneous, 2 µmol/kg daily).
`C[C@H](NC(=O)COC(=O)[C@H](C)NC(=O)CO)C(=O)O` — result for “depolymerization rate constant”: 0.238 h⁻¹ (water; pH 5, 50 °C).
For `O=C([O-])CN1CCN(CC(=O)[O-])CCN(CC(=O)NC[C@H]2CC[C@H](C(=O)N[C@H](Cc3cnc4ccccc4c3)C(=O)NCCCC[C@H](NC(=O)N[C@@H](CCC(=O)O)C(=O)O)C(=O)O)CC2)CCN(CC(=O)[O-])CC1.[64Cu+2]`, the mean SUVmax was 22.9 ± 14.9 (PET/CT; patients suspected prostate cancer, primary tumours; 2 h post-injection).
For `CCCCCCCCCn1cc(C(N)(CO)CO)nn1`, tau hyperphosphorylation read “decreased” (measured: AT8 epitope; APP/PS1 mouse; dose not given).
For `CC(C)(CCCC/C=C/CCCCCC(C)(C)C(=O)O)C(=O)O`, “reduction in plasma TC” read 31.8% (rhesus monkey, spontaneous hyperlipidemia; 20 mg/kg, 2 weeks; reference: baseline).
`CCOC(=O)C1NC(c2ccc[n+](C)c2)C23c4c5c6c7c8c9c(c%10c%11c2c2c4c4c%12c5c5c6c6c8c8c%13c9c9c%10c%10c%11c%11c2c2c4c4c%12c%12c5c5c6c8c6c8c%13c9c9c%10c%10c%11c2c2c4c4c%12c5c6c5c8c9c%10c2c45)C713` (stereo not drawn) has a spleen weight of roughly 0.15 g (mouse, BCBL1 PEL xenograft; intraperitoneal, 20 mg/kg, day 21).
`CCOP(=O)(CC(=O)Nc1ccc(S(=O)(=O)N(CC(N)=O)c2ccc(N(CC(N)=O)S(=O)(=O)c3ccc(OC)cc3)c3ccccc23)cc1)OCC`: central distance “increased” (open field test; APP/PS1 mice; intragastric, 40 mg/kg, 60 days, lentivirus intracerebroventricular; reference: untreated APP/PS1).
For `CCCOC(=O)Cc1c(C)n(C(=O)c2ccc(Cl)cc2)c2ccc(OC)cc12`, “latency of nociceptive response” read 9.78 ± 0.33 s (hot plate test; BALB/c mice; 100 mg/kg, 0 min).
Under “whole-body fat mass”, `CC[C@H]1[C@@H](O)[C@@H]2[C@H](CC[C@]3(C)[C@@H]([C@H](C)CCOS(=O)(=O)[O-])CC[C@@H]23)[C@@]2(C)CC[C@@H](O)C[C@@H]12.[Na+]` is recorded as 37.5 ± 0.7% (EchoMRI; ob/ob NASH mouse model; oral, 10 mg/kg once daily, 8 weeks; reference: body weight).
Under “ΔG‡ at 298.15 K”, `CC(C)[C@H](N)C(=O)N1CCC[C@H]1C(=O)NCC(=O)NCC(=O)O` is recorded as 22.9 ± 0.239 kcal/mol (diketopiperazine formation, Arrhenius plot, ESI-MS; 1-propanol; 70, 80, 90 °C, 0.5% acetic acid).
`Cc1nc(C)c(C=[N+]([O-])C(C)(C)C)nc1C` — result for “increase in protein level”: 63.6% (Western blot, measured: MEF2D; MPTP mouse model, substantia nigra cytosol; 90 mg/kg).
`CC(=O)N[C@@H](CC(N)=O)C(=O)NCC(=O)N[C@@H](CCCNC(=N)N)C(=O)N[C@@H](C)C(N)=O`: “rate constant succinimide to α-Asp” 0.086 h⁻¹ (1H NMR; sodium phosphate buffer 50 mM; pH 7.4, 28 °C).
`C=C(c1ccc(C(=O)O)c(F)c1)c1cc2c(cc1C)C(C)(C)C=CC2(C)C`: “log2 fold change” 0.4 (RNA sequencing, measured: Aurkb mRNA; rat, brain; dose not given, 24 h, single dose; reference: vehicle).
`COc1ccc2nc3ccc(OC)cc3c(SCCCN)c2c1`: Ki67-positive cells “decreased” (EO771, C57BL/6 mouse allograft; dose not given, 2 weeks).
Under “small intestine adenomas per mouse”, `Cc1cc2c(cc1O)C=C1C=CC(=O)C(C)(C)[C@H]1CC2` is recorded as 4.2 (mouse AOM/DSS colitis-associated cancer; 50 mg/kg).
`CC(C)(O)c1ccc(N2Cc3c(ccnc3-c3ccc(F)cc3OCC(F)(F)F)C2=O)cc1` gave a glucosylceramide level of 40 ± 4% (Gaucher disease mouse model, plasma; 10 mg/kg, 2 months once daily; reference: vehicle).
`CC(C)(C)C(=O)Nc1ccc2[nH]c(CN3CCC(N(CCCN4CCOCC4)CC4OC(n5cnc6c(N)ncnc65)C(O)C4O)CC3)nc2c1` (stereo not drawn): H3K79me2 level “decreased” (Western blot; BALB/c nude mice, H460 R231Q xenograft, tumour tissue; intraperitoneal, 20 mg/kg; reference: vehicle).
`CNc1oc(-c2cccc3ccccc23)nc1C#N` — result for insulitis score: “decreased” (NOD mice, prediabetic, pancreas; ip, 24 mg/kg daily, 2 weeks; reference: untreated).
`COc1cc(/C=C/C=C2\SC(=S)NC2=O)ccc1O` has a labelling time of less than 30 min (chicken embryo neural tube; 10 µM).
`CCCCCCOC(=O)Cc1c(C)n(C(=O)c2ccc(Cl)cc2)c2ccc(OC)cc12`: “latency of nociceptive response” 15.2 ± 0.38 s (hot plate test; BALB/c mice; 75 mg/kg, 60 min).
For `CCCCC1NC(=O)c2ccccc21` (racemic), the MDA content was 2.23 nmol/mg (rat cerebral ischaemia-reperfusion, cerebral cortex; 50 mg/kg, 24 h after reperfusion).
`CC=C1C(OC2OC(CO)C(O)C(O)C2O)OC=C(C(=O)OC)C1CC(=O)OCC1OC(OCCc2ccc(O)cc2)C(O)C(O)C1O` (stereo not drawn): “spleen weight decrease” 26.6% (BALB/c mouse, orthotopic colon 26 tumour; oral, 109.2 mg/kg daily, 10 days; reference: untreated tumour group).
`Cn1cncn1.[Ru+2].c1cc(-c2ccc3ccccc3n2)nc(-c2ccc3ccccc3n2)c1.c1ccc2cc3nc4c5cccnc5c5ncccc5c4nc3cc2c1` has a phototherapeutic index of 8 (M1 macrophages, BALB/c mouse bone marrow-derived; reference: dark EC50 over light EC50).
